# Measured values pooled from the literature.
# Protocols differ between the studies behind these lines. Values joined by “and” are separate records of one study, mostly repeats; a detail may differ. ± marks the error that the study gave.
SMILES,test,system,conditions,how to read,endpoint,result
COc1cc(-c2ccccc2)ncc1C(=O)Nc1ccc2c(=O)[nH]c(-c3ccc(C(C)(C)O)cc3)nc2c1,"RNA-seq GSEA, refers to: FALLER_STEM_MOUSE","organoids, small intestinal, Apc Q1405X, mouse","dose not given, knockout organoids","reference: DMSO, direction not given",normalized enrichment score,-2.17
Cc1noc(C)c1-c1ccc2nc(-c3cnn(CC(C)(C)O)c3)nc(N3CCOC[C@@H]3c3ccccc3)c2c1,"refers to: TNFα, MCP-1, IP-10, IL-6, IL-2, IL-1β","mouse collagen-induced arthritis, right rear paw",dose not given,reference: vehicle,cytokine production,decreased
CCN(O)N=Nc1ccc(S(=O)(=O)Nc2nccs2)cc1,carrageenan-induced paw edema,Wistar rat,"oral, 100 mg/kg, 2 h after carrageenan, with: carrageenan 1% subplantar",higher = more edema,paw edema volume,6.06 ± 1.66 a.u.
COc1cccc2c(N3CCC(CCP(=O)(O)O)CC3)ncnc12,,"mouse, serum",,,time to IFN-γ detection,≤ 8 h
Cc1c(C)n(Cc2cccc(OC(C)(C)C(=O)O)c2)c2ccc(C(=O)N[C@@H](C)c3ccc(C(C)(C)C)cc3)cc12,indirect calorimetry,lean mice,"dose not given, average over 72 h, end of treatment",,VCO2,71.3 ± 6.12 mL/min/kg
C=CCn1c(=O)c2cnc(Nc3ccc(N4CCN(C)CC4)cc3)nc2n1-c1ccc2c(n1)[C@@](O)(CC)CC2,immunohistochemistry,"mouse, OVCAR-3 xenograft, tumour","100 mg/kg, dosed 5 days",,time to γH2AX return to baseline,≤ 72 h
Cc1n[nH]c2ccc(-c3cc(OC[C@@H](N)Cc4ccccc4)cnc3-c3ccoc3)cc12,"kinase binding, competitor, MIB/MS competition, refers to: SHA3",Candida albicans cell lysate,100 nM,reference: DMSO,log2 fold change,-0.155
CN(C)C(=O)c1cc2cnc(Nc3ccc(N4CCNCC4)cn3)nc2n1C1CCCC1,"RNA-seq GSEA, refers to: HALLMARK_PROTEIN_SECRETION",MB002 tumour,"concentration not given, in vivo","reference: vehicle, direction not given",GSEA enrichment score,-0.267
N=C(N)NCCC[C@H](NC(=O)[C@H](CCCNC(=N)N)NC(=O)[C@H](CCCCN)NC(=O)[C@H](CCC(N)=O)NC(=O)[C@H](CCCCN)NC(=O)[C@H](Cc1ccc(O)cc1)NC(=O)[C@@H](N)CCCCN)C(=O)N[C@@H](CO)C(=O)N[C@@H](Cc1ccc(O)cc1)C(=O)N[C@@H](CCCCN)C(=O)O,,dentin hypersensitivity patients,"5 µg/tooth single, day 22, unit not given",reference: baseline,median tactile threshold change,-1
CCN1/C(=C/C(C)=O)Sc2ccc(F)cc21,von Frey test,"mouse, burn injury pain model, contralateral paw","intraperitoneal, 10 mg/kg",,paw withdrawal threshold,no effect
C[C@@H](O)CCOC(=O)C[C@@H](C)O,,human,"oral drink, dose not given, 120 min post dose, median, all participants",,plasma NEFA,0.1 mM
COc1ccc2c(c1)c(CC(=O)O)c(C)n2C(=O)c1ccc(Cl)cc1,,mouse carrageenan inflammation,"oral, 1 mg/kg",,paw oedema and hyperalgesia,no effect
COc1cc2cc(-c3ccc(CC(=O)Nc4cc(C(C)(C)C(F)(F)F)no4)cn3)cnc2cc1OC,RECIST v1.1,human RET-altered solid tumours,"13 100 mg tablets, phase I",,best overall response PR,50%
c1ccc(-c2n[nH]cc2-c2ccnc3ccccc23)nc1,"kinase binding, competitor, MIB/MS competition, refers to: ENV7",Candida albicans cell lysate,10 µM,reference: DMSO,log2 fold change,0.0285
Cc1ccc(N(O)N=Nc2ccc(S(=O)(=O)Nc3cc(C)on3)cc2)cc1,carrageenan-induced paw edema,Wistar rat,"oral, 100 mg/kg, 4 h after carrageenan, with: carrageenan 1% subplantar",higher = more edema,paw edema volume,4.11 ± 1.12 a.u.
CC(C)NCC(O)c1ccc(O)c(O)c1 (stereo not drawn),,"ventricular cardiomyocytes, C57BL/6 mouse","dose not given, 0.116 s",,sarcomere length,1.7 µm
CSCCNc1nc(SCCC(F)(F)F)nc2c1ncn2[C@@H]1O[C@H](COP(=O)(O)OP(=O)(O)C(Cl)(Cl)P(=O)(O)O)[C@@H](O)[C@H]1O,"platelet aggregation, light transmittance aggregometry","human, platelet-rich plasma","dose not given, 4 to 6 h, IPA above 90 %, with: ADP 20 µM",reference: patients,patients with IPA above threshold,0%
COc1cc(O)c(CC=C(C)C)c(O)c1C(=O)/C=C/c1ccc(O)cc1,,"male Tac:SW mice, conventional and germ-free","in high-fat diet, 60 mg/kg/day, 10 weeks",reference: high-fat diet alone,high-fat diet-induced weight gain,no effect
CN(O)N=Nc1ccc(S(=O)(=O)Nc2nccs2)cc1,carrageenan-induced paw edema,Wistar rat,"oral, 100 mg/kg, 2 h after carrageenan, with: carrageenan 1% subplantar",higher = more edema,paw edema volume,5.41 ± 0.91 a.u.
CC#Cc1cncc(-c2ccc3c(c2)[C@@]2(N=C(C)C(N)=N2)[C@]2(CC[C@H](OC)CC2)C3)c1,refers to: Aβ40,"beagle dogs, plasma","oral, 0.48, 3.4 or 24 µmol/kg daily, 2 weeks, 4 h post-dose",,reduction,> 50%
CC1(C)CCC(c2ccc(Cl)cc2)=C(CN2CCN(c3ccc(C(=O)NS(=O)(=O)c4ccc(N[C@H](CCN5CCOCC5)CSc5ccccc5)c(S(=O)(=O)C(F)(F)F)c4)cc3)CC2)C1,cell killing,"canine lymph node CD21+ B cells, dog 34",24 h,,EC50,63 nM
CC(=O)N(C)[C@H]1CCN(C(=O)c2cnc3c(c2)C[C@](C)(c2ccc(F)cc2)N3)C1,"vanin activity, refers to: pantothenic acid","humans, whole blood ex vivo","dose not given, after dosing",,time to maximal inhibition,~1 h
CCCN(O)N=Nc1ccc(S(=O)(=O)Nc2onc(C)c2C)cc1,carrageenan-induced paw edema,Wistar rat,"oral, 100 mg/kg, 4 h after carrageenan, with: carrageenan 1% subplantar",higher = more edema,paw edema volume,4.32 ± 0.71 a.u.
N#Cc1ccc2c(-c3ccncc3)c(-c3ccc(F)cc3)nn2c1,"kinase binding, competitor, MIB/MS competition, refers to: ENV7",Candida albicans cell lysate,100 nM,reference: DMSO,log2 fold change,-0.0278
COc1cc(Nc2ncc3c(n2)-c2ccc(Cl)cc2C(c2c(F)cccc2OC)=NC3)ccc1C(=O)O,,"mouse, NB-1643 neuroblastoma xenograft","oral, 2.6 mg/kg, day 14",reference: vehicle,relative tumour volume T/C,3.08
[Cl-].[Cl-].[Pt+2].[Ru+2].c1ccc(-c2nccnc2-c2ccccn2)nc1.c1cnc2c(c1)ccc1cccnc12.c1cnc2c(c1)ccc1cccnc12,photoinduced DNA cleavage,supercoiled pcDNA,"250 µM, 0.1 µM pcDNA",,nicked circular DNA,23.9%
Cc1noc(NS(=O)(=O)c2ccc(N=NN(O)c3ccccc3)cc2)c1C,carrageenan-induced paw edema,Wistar rat,"oral, 100 mg/kg, 4 h after carrageenan, with: carrageenan 1% subplantar",higher = more edema,paw edema volume,4.41 ± 0.61 a.u.
C[C@H]1C[C@H]2CSC(N)=N[C@@]2(c2nc(NC(=O)c3ccc(OC(F)F)cn3)cs2)CO1,refers to: total Aβ,"healthy adults, plasma","12 mg single dose, 4 h post-dose",reference: placebo,percent change from baseline,-45%
COc1cc(/C=C/C(=O)N2CCC=CC2=O)cc(OC)c1OC,"quantitative RT-PCR, refers to: XIAP, normalised to beta-actin","nude mouse, MDA-MB-468 xenograft, tumour","15 mg/kg, 21 days, unit not given",reference: DMSO,mRNA level,0.535
N#Cc1ccn2c(-c3ccncc3)c(-c3ccc(F)cc3)nc2c1,"kinase binding, competitor, MIB/MS competition, refers to: HRR25",Candida albicans cell lysate,10 µM,reference: DMSO,log2 fold change,-2.1
Nc1nc2cc(-c3ccc4ncc(C(=O)N5CCOCC5)n4c3)ccc2o1,RECIST v1.1,advanced solid tumour patients,"dose not given, 27 of 61 evaluable",reference: patients,stable disease,44%
N#CC[C@H](C1CCCC1)n1cc(-c2ncnc3[nH]ccc23)cn1,"phosphoflow cytometry, refers to: pS6",patient plasma,"concentration not given, C1D15 steady-state trough",,inhibition range,-55.5 to 85.7%
OC(CCN1CCCCC1)(c1ccccc1)C1CC2C=CC1C2 (stereo not drawn),resting-state EEG,healthy elderly humans,"oral, 4 mg, eyes open, LS mean",,EEG Alpha2-power Pz-O2,3.1 µV²
C=Cc1c(C)c2cc3nc(c(CC(=O)O)c4[nH]c(cc5nc(cc1[nH]2)C(C)=C5CC)c(C)c4C(=O)O)[C@@H](CCC(=O)O)[C@@H]3C,flow cytometry,"mice, 4T1 tumour-bearing","dose not given, 1 h",,CD4 T cells,1.97%
CO[C@H]1CC[C@H](N2C(=O)CNc3ncc(-c4ccc(C(C)(C)O)nc4)nc32)CC1,flow cytometry,"stimulated T cells, human, blood","45 mg single dose, 1.5 h, mean",reference: baseline,p4EBP1 change from baseline,-49.8%
O=C(OC(C(F)(F)F)C(F)(F)F)N1CCN(Cc2cccc(Oc3ccccc3)c2)CC1,PET blocking study,"rhesus monkey, brain CB","0.03 mg/kg, compound pretreatment, with: [18F]T-401 tracer",,k4,0.0508 min⁻¹
O=C(O)CNC(=O)Cc1ccccc1,,"ventricular cardiomyocytes, C57BL/6 mouse","dose not given, 0.012 s",,sarcomere length,1.72 µm
Cc1cc(NS(=O)(=O)c2ccc(N=NN(C)O)cc2)no1,carrageenan-induced paw edema,Wistar rat,"oral, 100 mg/kg, 1 h after carrageenan, with: carrageenan 1% subplantar",higher = more edema,paw edema volume,5.68 ± 0.82 a.u.
Cc1nn(-c2nc3c(F)cc(F)cc3s2)c(O)c1C(c1ccc(C(F)(F)F)cc1)c1c(C)nn(-c2nc3c(F)cc(F)cc3s2)c1O,,"mouse, cerulein-induced acute pancreatitis, serum",25 mg/kg,,amylase activity,98.1 mOD/min and 80.7 mOD/min and 140 mOD/min and 94.2 mOD/min and 91.3 mOD/min
COc1c(C)cnc(Cn2cc(C#CCCOP(=O)(O)O)c3c(Cl)nc(N)nc32)c1C,refers to: HER-2 extracellular domain,"human patients, serum",≥48 mg/m^2,,serum HER-2 ECD level,decreased
COc1ccccc1[C@H](Cn1c(=O)n(C(C)(C)C(=O)O)c(=O)c2c(C)c(-c3ncco3)sc21)OC1CCOCC1,,human,"200 mg, post-treatment",,serum leptin,4 ± 2.89 ng/mL
Cc1ccc(C(=O)OCc2ccc([C@@H](CN)C(=O)Nc3ccc4cnccc4c3)cc2)c(C)c1,refers to: pMLC-2 Thr18/Ser19,"ocular hypertensive rabbit, trabecular meshwork","topical, 0.02 %, 24 h",direction not given,pMLC-2 immunostaining score,2 ± 0.8

# Excerpt of the above:
SMILES,test,system,conditions,how to read,endpoint,result
COc1cc(-c2ccccc2)ncc1C(=O)Nc1ccc2c(=O)[nH]c(-c3ccc(C(C)(C)O)cc3)nc2c1,"RNA-seq GSEA, refers to: FALLER_STEM_MOUSE","organoids, small intestinal, Apc Q1405X, mouse","dose not given, knockout organoids","reference: DMSO, direction not given",normalized enrichment score,-2.17
Cc1noc(C)c1-c1ccc2nc(-c3cnn(CC(C)(C)O)c3)nc(N3CCOC[C@@H]3c3ccccc3)c2c1,"refers to: TNFα, MCP-1, IP-10, IL-6, IL-2, IL-1β","mouse collagen-induced arthritis, right rear paw",dose not given,reference: vehicle,cytokine production,decreased
CCN(O)N=Nc1ccc(S(=O)(=O)Nc2nccs2)cc1,carrageenan-induced paw edema,Wistar rat,"oral, 100 mg/kg, 2 h after carrageenan, with: carrageenan 1% subplantar",higher = more edema,paw edema volume,6.06 ± 1.66 a.u.
COc1cccc2c(N3CCC(CCP(=O)(O)O)CC3)ncnc12,,"mouse, serum",,,time to IFN-γ detection,≤ 8 h
Cc1c(C)n(Cc2cccc(OC(C)(C)C(=O)O)c2)c2ccc(C(=O)N[C@@H](C)c3ccc(C(C)(C)C)cc3)cc12,indirect calorimetry,lean mice,"dose not given, average over 72 h, end of treatment",,VCO2,71.3 ± 6.12 mL/min/kg
C=CCn1c(=O)c2cnc(Nc3ccc(N4CCN(C)CC4)cc3)nc2n1-c1ccc2c(n1)[C@@](O)(CC)CC2,immunohistochemistry,"mouse, OVCAR-3 xenograft, tumour","100 mg/kg, dosed 5 days",,time to γH2AX return to baseline,≤ 72 h
Cc1n[nH]c2ccc(-c3cc(OC[C@@H](N)Cc4ccccc4)cnc3-c3ccoc3)cc12,"kinase binding, competitor, MIB/MS competition, refers to: SHA3",Candida albicans cell lysate,100 nM,reference: DMSO,log2 fold change,-0.155
